Measurements of several laboratories.
Protocols differ between the studies behind these lines.
Target: Receptor tyrosine-protein kinase erbB-3 (ERBB3, Homo sapiens, UniProt P21860)

| Structure (SMILES) | observed | method | concentration | relative to | remaining binding [%] |
| --- | --- | --- | --- | --- | --- |
| CCN1CCN(Cc2ccc(C(=O)Nc3ccc(C)c(NCc4cnc5[nH]ccc5c4OC)c3)cc2C(F)(F)F)CC1 | binding | competition with immobilised ligand | 1 µM |  | 63 |
| C=CC(=O)N1CCc2ccc(-n3c(=O)ccc4cnc5ccc(-c6cnn(C)c6)cc5c43)cc21 |  | KINOMEscan | 1 µM | DMSO control | 83 |
| Nc1ncc2c(n1)-c1c([nH]c3ccc(C4=CCOCC4)cc13)CCC2 | binding | competition with immobilised ligand | 1 µM |  | 89 |
| Cc1ccc(-c2c(/C=C(\C#N)C(=O)NC(C)C)n(CCCO)c3ncnc(N)c23)cc1 | cell-free assay | competition with immobilised ligand | 1 µM |  | 88 |
| COc1c(Cl)cccc1Nc1c(-c2ccncc2C#C[C@@]2(C)CCCN2C(=O)/C=C/CN(C)C)[nH]c2c1C(=O)NCC2 | binding | competition with immobilised ligand | 3 µM |  | 65 |
| CNC1C[S+]2CC[S+]3CC[S+](C1)[Ru-4]321([N]=C=S)[n]2c3ccc(OC)cc3c3c4c(c5cc(F)c[n+]1c5c32)C(=O)NC4=O (centres unmarked) |  | KinomeScan | 0.1 µM | untreated | 100 |
| Cc1cnc2nc1Nc1cccc(c1)COC/C=C/COCc1cc(ccc1OCCN1CCOCC1)N2 | binding |  | 0.1 µM |  | 99 |
| CC(C)=CC1OC(C)(C)C2C=C3C(=O)C(Cl)=CC(O)C3C3C(O)C4OC4C(=O)C132 (centres unmarked) | cell-free assay | competition with immobilised ligand | 10 µM |  | 94 |
| COc1cc(Nc2nccc(-c3cnn4nc(OC)ccc34)n2)cc(C(F)(F)F)c1 | binding | competition with immobilised ligand | 1 µM |  | 95 |
| C=CC(=O)N1CCCC(n2c(=O)c3ncccc3n(Cc3ccc(Oc4ccccc4)cc3)c2=O)C1 (centres unmarked) | cell-free assay | competition with immobilised ligand | 1 µM |  | 69 |
| CNC(=O)C1CCN(c2cc(C)c(F)cc2NC(=O)c2ccc(-c3cc(O)ccc3C)c(C)c2)CC1 | binding | competition with immobilised ligand | 1 µM |  | 63 |
